Measured values from different studies.
Numbered parts are unrelated; each lists some results of a single study.
Chain of UniProt P43250 (whole entry, looked up): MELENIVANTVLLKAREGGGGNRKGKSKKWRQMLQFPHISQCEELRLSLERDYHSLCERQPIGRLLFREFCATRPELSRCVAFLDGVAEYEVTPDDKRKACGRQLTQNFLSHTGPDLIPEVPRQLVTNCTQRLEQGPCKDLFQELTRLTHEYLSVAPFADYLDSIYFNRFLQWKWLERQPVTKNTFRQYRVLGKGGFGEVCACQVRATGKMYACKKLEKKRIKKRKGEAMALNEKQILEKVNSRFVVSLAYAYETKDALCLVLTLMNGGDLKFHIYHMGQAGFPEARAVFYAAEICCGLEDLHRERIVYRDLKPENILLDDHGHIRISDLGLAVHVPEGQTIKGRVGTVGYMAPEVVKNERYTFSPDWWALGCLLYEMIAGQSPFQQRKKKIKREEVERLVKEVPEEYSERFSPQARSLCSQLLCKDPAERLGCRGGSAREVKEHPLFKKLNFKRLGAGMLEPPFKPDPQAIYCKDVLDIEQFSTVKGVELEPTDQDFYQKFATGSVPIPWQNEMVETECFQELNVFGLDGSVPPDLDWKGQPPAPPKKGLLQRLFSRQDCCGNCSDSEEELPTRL

Series 1 — method: RNA Bind-n-Seq; form: RNA; medium: in vitro; concentration: 365 nM; baseline: no-protein control; reading: higher = stronger binding; measurement: RBNS enrichment (R)
Target: RNA binding protein fox-1 homolog 2, RRM domain, GST-SBP tag (RBFOX2, Homo sapiens, UniProt O43251-10, residues 100-194)
Notes: natural RNA segment, single round, ends assumed
Shared flanks, not repeated: GGGAGUUCUACAGUCCGACGAUC … UGGAAUUCUCGGGUGCCAA
Construct (chain): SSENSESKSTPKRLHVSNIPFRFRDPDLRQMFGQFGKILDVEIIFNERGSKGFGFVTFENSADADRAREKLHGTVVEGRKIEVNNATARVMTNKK
UGCCUCCUAGAGAAAACACUGCCUGGACUGUUCUGUGCAUCCCUCCAAACAGCAUCAUCCAAAUCCAACUGAGGACAGACGGACUGUCCCGGCCUGGGCCUGGGCUCCUA: 1.73
AUCCUGGCUUUGCCCAACCUCAGCAACCUGUAAGACUGAUAAUGAAAUAAAUCAUGUUAAUCCUAGCUGUGUGCAGUCUCUCUUACCCUUCUGUGCCCAGCUCAGUCUUC: 0.32
UGGUGUGUUGUGAUCCAGGGAAUGAAAAGAAAUUUGACCCUGGAUUGGUUCUCUCCUUGGACUUAAGGAAUCUUACCUUUUCCUUCCACAAAGUUCUCCCAGGCAAGGAC: 0.356
UGGAAGCAAGUACUGCAUUUCCUAUGCAACAAAAAAGGAAAAAUAAAAAAUUGCUAAUGCUAUGGAAGCUGUGUCAUCAUUUGCUUUACAGCAUGCCUGGGUGAUUGAGU: 2.9
AUUUUUCUUGCAUUAGGGCACAGUGUUAAAUUUUUUGGAGGUAAAUAUACUAUUUAUAAUCACUAUAUAUAGUAGGAGGGGGUAUGUGUCUCAGGCUUUUCUGAAGUUGC: 1.62
AGGACAAAAUAAACUGACUGAAGGGUUCGCUACUUCCAGUCACAACCUGUGUAUAGAAGAAAGAAAGGGUCAGUGAUCGAGAAUCAGACACUCUCGUUCAGGAGGAGGCU: 0.433
CUCUUGGUUACAGUAGCGUAGCGUGCCCGUGUGCAUGUCCUUUGCGCCUGUGACCACCACCCCAACAAACCAUCCAGUGACAAACCAUCCAGUGGAGGUUUGUCGGGCAC: 0.404
UUAGGACAGUGGUCACUUUCUAGUUGCCGUCUUCACAGACAAACUUGAAAGGUAUUAAGGAAAAAAUUCCACAUAGCUCUGGGCCUUUUUUGUAUUCUGAUUGCCACGUU: 0.395

Series 2 — method: aptamer microarray, sandwich; form: DNA with 2'F-ANA; medium: in vitro; concentration: 200 nM; with: Cy3 exosite-II aptamer, 400 nM; reading: higher = stronger binding; measurement: mean fluorescence intensity; strand: GGTTGGTGTGGTTGG
Target: Prothrombin, mature alpha-thrombin (F2, Homo sapiens, UniProt P00734)
Notes: whole 15-mer aptamer, many near background
2'F-ANA at 2 5 6 8 9 10 12 13: 51.1 a.u.
2'F-ANA at 2 3 4 5 6 8 13 15: 57.5 a.u.
2'F-ANA at 1 2 3 4 6 9 11 13 14 15: 55.5 a.u.
2'F-ANA at 1 3 4 5 6 7 8 9 10 11 14 15: 48.2 a.u.
2'F-ANA at 1 2 4 5 7 8 10 11 12 13 14: 44.7 a.u.
2'F-ANA at 1 2 6 7 8 9 11 13 14 15: 55.5 a.u.
2'F-ANA at 2 3 4 5 6 7 8 11 12 13 15: 102 a.u.
2'F-ANA at 5 7 8 9 12 13: 126 a.u.

Series 3 — method: RNA Bind-n-Seq; form: RNA; medium: in vitro; concentration: not given; notes: RNA with constant flanks, ends assumed; baseline: input RNA pool; reading: higher = stronger binding; measurement: bound/input enrichment
Target: RING finger protein unkempt homolog, zinc fingers 1-6, GST-SBP tag (UNK, Homo sapiens, UniProt Q9C0B0, residues 30-357)
Shared flanks, not repeated: GGGAGUUCUACAGUCCGACGAUC … CAACAGAGGAUUGAGCAUCA
Target sequence (chain): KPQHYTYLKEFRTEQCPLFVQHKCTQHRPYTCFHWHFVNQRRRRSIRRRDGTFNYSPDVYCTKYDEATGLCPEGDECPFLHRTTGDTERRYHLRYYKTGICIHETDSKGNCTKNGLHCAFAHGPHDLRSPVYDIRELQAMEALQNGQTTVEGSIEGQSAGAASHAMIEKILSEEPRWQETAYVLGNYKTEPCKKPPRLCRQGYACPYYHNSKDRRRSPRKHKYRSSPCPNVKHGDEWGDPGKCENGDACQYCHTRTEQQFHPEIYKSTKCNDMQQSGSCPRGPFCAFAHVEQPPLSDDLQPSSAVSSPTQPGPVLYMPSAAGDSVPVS
GCAGGAUCUUCUAAGUACCAGUGGGACAUUAUGAAAUCCCUUGGGCUCUCUGAUGACGACACCGUGAAGUUUUCUGAAGCAGAGCACUGGCUUGAUUAUUUCCCACCACUGGCCGUUCAG: 0.125 ratio
GAAUAGGUUGGGUAUAACACCUGCAGUUUCCAGCUCUAUGAAACAGGAGAGAGAGAGAAACCGCAGUUUGACUUGACUGUGGAAGAUGAUGGUUGCAUGCUUCUCAUUUGUACGUUUCCA: 0.189 ratio
GGGACGAUUCAUCUCUUUCGAAAGCCACAGAGAUCUUUUUUUGGAAAGUUACUACAGGAAUUCCGACUUGUCGCAGCUGACCGGAGGUCCUGGAAGAUCCUUCUGUUCGGUGCAAUCAAC: 0.094 ratio
UAGAGAUGAUAUCAAUUAUUACCUAUUGUUGCACUGACUUAUACGUAGAUCAAUAGGAGAUUCCGAUGCCCUUAUGCUGUGAGUUUGAUGUGAUUUCAUUAGCUGCAUGGUGCUUUCUGA: 0.981 ratio
GUUGUUUUUGUUUUGAGACAGGGCCUCACUGUGCGGCCCUGGCUGGCCUGGAACUUGCUAUACCGACCAGGCUAACCUGGAACUCAGCGAACUGUCUGCCCAGCCUUCUUUGGUUUUAUU: 0.092 ratio
AAAGAAAGAAAACCCUCUGUGCACGUUGUCAUGAACUUGCCAGCAAAAGCUAUAGAGUUUCUCCGUGCUUUCAAGUGGCUUUUAGAUGGGCAGCCAUGCAGCAGUGAGUUCCUUCCCAUA: 0.101 ratio
AAGAGCUAACAGAAAACAUUUUGAAAGUGCUCAAAGAACAAGCUGCUGAUUCUAUUUUGGUACCCGAAGCAGCCCUAAAAUUAAACAAGGAUCUUUAUGUCCAUACGAUGAGAACUCUAG: 0.202 ratio
UCAGGGCCAAAACUGGAACCAAGGAUUUAAUAACUAUUAUGAUCAAGGAUAUGGAAAUUAUAACCGUGCCUAUGGUGGUGAUCAGAACUAUAGUGGCUAUGGCGGCUAUGAUUAUACUGG: 0.274 ratio

Single results of other studies
CNc1cc2c(Nc3cccc(Br)c3)ncnc2cn1
remaining activity (G protein-coupled receptor kinase 6 (GRK6, Homo sapiens, UniProt P43250); enzyme activity, inhibitor; 0.5 µM; baseline: control): 91.1%

Repeated from above (series 1):
AUUUUUCUUGCAUUAGGGCACAGUGUUAAAUUUUUUGGAGGUAAAUAUACUAUUUAUAAUCACUAUAUAUAGUAGGAGGGGGUAUGUGUCUCAGGCUUUUCUGAAGUUGC: 1.62
AGGACAAAAUAAACUGACUGAAGGGUUCGCUACUUCCAGUCACAACCUGUGUAUAGAAGAAAGAAAGGGUCAGUGAUCGAGAAUCAGACACUCUCGUUCAGGAGGAGGCU: 0.433
AUCCUGGCUUUGCCCAACCUCAGCAACCUGUAAGACUGAUAAUGAAAUAAAUCAUGUUAAUCCUAGCUGUGUGCAGUCUCUCUUACCCUUCUGUGCCCAGCUCAGUCUUC: 0.32
UUAGGACAGUGGUCACUUUCUAGUUGCCGUCUUCACAGACAAACUUGAAAGGUAUUAAGGAAAAAAUUCCACAUAGCUCUGGGCCUUUUUUGUAUUCUGAUUGCCACGUU: 0.395
